{"data": "Measurements collected from several papers", "HLA class I histocompatibility antigen, A alpha chain allele A*02:01": "HLA class I histocompatibility antigen, A alpha chain, allele A*02:01 (Homo sapiens, UniProt P04439)", "note": "Protocols differ between the studies behind these lines. Values joined by “and” are separate records of one study, mostly repeats; a detail may differ. ± marks the error that the study gave.", "sequence of UniProt P63096 (whole entry, looked up)": "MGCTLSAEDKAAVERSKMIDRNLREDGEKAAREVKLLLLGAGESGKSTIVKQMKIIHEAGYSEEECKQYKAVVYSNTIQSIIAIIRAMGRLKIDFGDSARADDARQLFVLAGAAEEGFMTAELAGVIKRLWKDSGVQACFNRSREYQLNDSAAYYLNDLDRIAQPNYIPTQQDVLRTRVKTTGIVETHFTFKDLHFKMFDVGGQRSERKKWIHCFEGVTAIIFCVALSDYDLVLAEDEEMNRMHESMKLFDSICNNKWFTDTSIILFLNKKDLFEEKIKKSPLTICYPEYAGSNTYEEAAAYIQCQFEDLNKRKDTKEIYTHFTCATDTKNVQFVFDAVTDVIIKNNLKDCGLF", "sequence of UniProt P35372 (whole entry, looked up)": "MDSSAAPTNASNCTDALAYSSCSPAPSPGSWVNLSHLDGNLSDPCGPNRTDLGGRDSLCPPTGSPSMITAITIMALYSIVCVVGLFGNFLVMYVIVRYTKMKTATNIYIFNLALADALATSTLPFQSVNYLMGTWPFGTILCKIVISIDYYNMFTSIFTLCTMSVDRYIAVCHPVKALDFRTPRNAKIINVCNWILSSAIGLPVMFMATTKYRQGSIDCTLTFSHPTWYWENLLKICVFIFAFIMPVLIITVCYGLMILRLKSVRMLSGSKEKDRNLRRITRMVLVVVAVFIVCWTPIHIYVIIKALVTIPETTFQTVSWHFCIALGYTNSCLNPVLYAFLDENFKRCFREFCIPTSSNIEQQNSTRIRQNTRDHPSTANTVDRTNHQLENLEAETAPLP", "sequence of UniProt O00425 (whole entry, looked up)": "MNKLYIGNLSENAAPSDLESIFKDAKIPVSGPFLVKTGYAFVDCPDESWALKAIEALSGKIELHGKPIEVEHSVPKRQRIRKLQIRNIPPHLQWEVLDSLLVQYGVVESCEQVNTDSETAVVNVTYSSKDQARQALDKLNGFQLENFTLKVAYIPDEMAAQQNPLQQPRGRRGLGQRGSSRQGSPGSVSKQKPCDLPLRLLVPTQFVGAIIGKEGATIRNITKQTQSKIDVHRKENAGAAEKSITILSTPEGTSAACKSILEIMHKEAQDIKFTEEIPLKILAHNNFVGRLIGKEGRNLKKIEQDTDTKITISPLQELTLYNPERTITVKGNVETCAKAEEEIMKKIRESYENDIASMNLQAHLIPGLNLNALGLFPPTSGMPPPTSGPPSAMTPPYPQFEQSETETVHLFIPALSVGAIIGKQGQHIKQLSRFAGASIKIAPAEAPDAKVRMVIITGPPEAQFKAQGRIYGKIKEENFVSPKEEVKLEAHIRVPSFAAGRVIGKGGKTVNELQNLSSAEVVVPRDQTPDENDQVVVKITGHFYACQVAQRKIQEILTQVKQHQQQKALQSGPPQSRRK"}
{"SMILES": "NC(=O)c1nc(F)c[nH]c1=O", "test system": "hamster cells", "endpoint": "CC50", "result": "> 400 µM"}
{"SMILES": "COc1ccc2c(c1)[C@]13CCCC[C@@H]1[C@H](C2)N(C)CC3", "test system": "C57BL/6 mice, plasma", "setting": "oral, 50 µg/g, 120 min", "endpoint": "plasma concentration", "result": "209 ng/mL and 14 ng/mL and 163 ng/mL and 87 ng/mL and 102 ng/mL"}
{"SMILES": "O=C1c2c(O)c(=O)ccn2N([C@@H]2c3ccccc3SCc3c2ccc(F)c3F)[C@@H]2COCCN12", "test system": "hamster cells", "endpoint": "CC50", "result": "5.3 µM"}
{"SMILES": "CC(C)(C)[C@H](NC(=O)C(F)(F)F)C(=O)N1C[C@H]2[C@@H]([C@H]1C(=O)N[C@H](C#N)C[C@@H]1CCNC1=O)C2(C)C", "test system": "human liver microsomes", "setting": "scaled to liver", "endpoint": "intrinsic clearance", "result": "31.1 mL/min/kg"}
{"SMILES": "COC(=O)[C@H]1[C@@H](OC(=O)c2ccccc2)C[C@@H]2CC[C@H]1N2C", "assay": "LC-MS/MS", "test system": "Sprague-Dawley rat, male, whole blood", "setting": "intraperitoneal, 20 mg/kg, up to 180 min", "endpoint": "AUC(0-last)", "result": "743 ± 43.2 ng·h/mL"}
{"SMILES": "CC[C@H](C)[C@H](NC(=O)[C@H](CO)NC(=O)[C@H](Cc1ccc(O)cc1)NC(=O)[C@@H](NC(=O)[C@@H](N)CCCCN)C(C)C)C(=O)N1CCC[C@H]1C(=O)N[C@@H](Cc1c[nH]cn1)C(=O)N[C@@H](CCC(N)=O)C(=O)N[C@@H](CCSC)C(=O)O", "target or system": "HLA class I histocompatibility antigen, A alpha chain allele A*02:01", "assay": "binding", "endpoint": "IC50", "result": "14.6 µM"}
{"SMILES": "Cc1nnc2n1-c1ccc(Cl)cc1C(c1ccccc1)=NC2", "test system": "human, female", "setting": "2 mg, day 22, after hop intake, mean", "endpoint": "AUC", "result": "522 ± 36.1 ng·h/mL"}
{"SMILES": "CC(C)C[C@@H]1NC(=O)[C@H](CC(C)C)NC(=O)[C@H](Cc2c[nH]c3ccccc23)NC(=O)[C@H](CO)NC(=O)[C@H](Cc2c[nH]c3ccccc23)NC(=O)[C@@H]2CCCN2C(=O)[C@H](CC(C)C)NC(=O)[C@H](Cc2c[nH]cn2)NC(=O)[C@@H]2CCCN2C(=O)[C@H](CC(N)=O)NC(=O)[C@H](C)NC(=O)[C@H](Cc2ccc(O)cc2)NC(=O)[C@H](CS)NC(=O)[C@H](CCCCNC(=O)CN2CCN(CC(=O)O)CCN(CC(=O)O)CCN(CC(=O)O)CC2)NC1=O [lutetium-177 labelled]", "test system": "Balb/c mouse, female, 4T1 tumour, spleen", "setting": "intravenous, 3.7 MBq, 72 h", "endpoint": "tissue uptake", "result": "0.01 %ID"}
{"SMILES": "CN/C(=N\\[N+](=O)[O-])NCc1cnc(Cl)s1", "test system": "test soil", "setting": "0.12 mg/kg nominal, 0 days", "endpoint": "measured soil concentration", "result": "0.07 mg/kg dry soil"}
{"SMILES": "O=C1c2c(O)c(=O)ccn2N([C@@H]2c3ccccc3SCc3c2ccc(F)c3F)[C@@H]2COCCN12", "test system": "BALB/c mouse, plasma", "setting": "oral, 0.5 mg/kg baloxavir marboxil every 12 h, 24 h", "endpoint": "plasma concentration", "result": "0.438 ng/mL"}
{"SMILES": "O=C(O)CCC(CP(=O)(O)O)C(=O)O (stereo not drawn)", "test system": "Wistar rat, male, plasma", "setting": "ip, 100 mg/kg", "endpoint": "Cmax", "result": "275000 ng/mL"}
{"SMILES": "C[C@H]1CN(c2n[nH]c3nc(N[C@H]4CC[C@H](NS(=O)(=O)CCC(F)(F)F)CC4)ncc23)CCO1", "target or system": "IGF2BP3 (Homo sapiens, UniProt O00425)", "assay": "inhibitor, Kinobeads competition profiling", "setting": "0.8 µM", "how to read": "baseline: vehicle", "endpoint": "relative abundance", "result": 1.46}
{"SMILES": "COc1cc2c(Oc3ccc4[nH]c(C)cc4c3F)ccnc2cc1OCC1(N)CC1", "assay": "measured: grade 3 influenza-like symptoms", "test system": "paediatric high-risk refractory sarcoma", "setting": "8 mg", "endpoint": "incidence of adverse event", "result": "0%"}
{"SMILES": "CCCCCCCCCCC(=O)O[C@H]1CC[C@H]2[C@@H]3CCC4=CC(=O)CC[C@]4(C)[C@H]3CC[C@]12C", "assay": "measured: testosterone", "test system": "human, plasma", "setting": "oral, 237 mg testosterone undecanoate, average", "endpoint": "AUC(0-24)", "result": "146 ng·h/mL"}
{"SMILES": "Cc1ncc2n1-c1ccc(Cl)cc1C(c1ccccc1F)=NC2", "test system": "healthy volunteers", "setting": "oral, 5 mg, together with: momelotinib 200 mg", "endpoint": "feeling hot incidence", "result": "8.3%"}
{"SMILES": "NC(=O)c1ncn([C@@H]2O[C@H](CO)[C@@H](O)[C@H]2O)n1", "test system": "hamster cells", "endpoint": "CC50", "result": "340 µM"}
{"SMILES": "CCN(CC)C(=O)[C@@H]1C=C2c3cccc4[nH]cc(c34)C[C@H]2N(C)C1", "assay": "measured: intermittent shortness of breath", "test system": "healthy volunteers", "setting": "dose not given, 0 to 12 h", "how to read": "baseline: placebo, direction not given", "endpoint": "List of Complaints score", "result": 0}
{"SMILES": "CNC(C)Cc1ccc2c(c1)OCO2 (stereo not drawn)", "assay": "rapid equilibrium dialysis", "test system": "human plasma", "setting": "mean over all concentrations", "endpoint": "fraction unbound", "result": "83.5 ± 4.7%"}
{"SMILES": "O=C(O)C[C@H](NC(=O)[C@H](CC(=O)O)NC(=O)[C@H](CC(=O)O)NC(=O)[C@H](CC(=O)O)NC(=O)[C@H](CC(=O)O)NC(=O)[C@H](CC(=O)O)NC(=O)[C@H](CC(=O)O)NC(=O)[C@H](CC(=O)O)NC(=O)[C@H](CC(=O)O)NC(=O)[C@H](CC(=O)O)NC(=O)[C@H](CC(=O)O)NC(=O)[C@H](CCCCNC(=O)c1ccc(C(=O)NCCOCCOB2BBBBBB3BBBB3B2)cc1)NC(=O)CN1CCN(CC(=O)O)CCN(CC(=O)O)CCN(CC(=O)O)CC1)C(=O)O [gallium-67 labelled]", "test system": "ddY mice, male, blood", "setting": "intravenous, 37 kBq, 10 min", "endpoint": "tissue uptake", "result": "2.98 %ID/g"}
{"SMILES": "CC(C)[C@@H]1NC(=O)[C@H](Cc2ccccc2)NC(=O)[C@@H]2NC(=O)[C@H](Cc3ccccc3)NC(=O)[C@@H]3CCCN3C(=O)CNC(=O)[C@H](Cc3ccccc3)NC(=O)[C@@H]3CNCCCC[C@@H](C(=O)O)NC(=O)[C@@H]4NC(=O)[C@H](CC(N)=O)NC(=O)CNC(=O)[C@H]([C@@H](O)C(=O)O)NC(=O)[C@H](CSC[C@@H](NC(=O)[C@H](CCC(N)=O)NC(=O)[C@H](CCCCNC(=O)c5ccc(NN)nc5)NC(=O)[C@@H](N)CS[C@H]4C)C(=O)N[C@@H](CS[C@H]2C)C(=O)N3)NC1=O [technetium-99m labelled]", "test system": "rat, saline control, spleen", "setting": "intravenous, 2 h after tracer, tracer 2 h after reperfusion", "endpoint": "tissue uptake", "result": "0.54 ± 0.1 %ID/g"}
{"SMILES": "C[C@@H](O)[C@@H](CO)NC(=O)[C@@H](CCCNC(=N)N)NC(=O)[C@@H]1CCCN1C(=O)[C@@H]1CSSC[C@H](NC(=O)[C@H](Cc2ccccc2)NC(=O)CN2CCN(CC(=O)O)CCN(CC(=O)O)CCN(CC(=O)O)CC2)C(=O)N[C@@H](Cc2ccc(O)cc2)C(=O)N[C@@H](Cc2ccccc2)C(=O)N[C@@H](CCC(N)=O)C(=O)N[C@@H](CC(N)=O)C(=O)N1 [gallium-68 labelled]", "test system": "Wistar rat, thyroid", "setting": "intravenous, 8 MBq, 30 min, group mean", "endpoint": "tissue uptake", "result": "0.27 %ID/g"}
{"SMILES": "CC(C)[C@H](NC(=O)[C@@H](N)Cc1ccc(O)cc1)C(=O)N[C@@H](Cc1ccc(O)cc1)C(=O)N[C@@H](CCC(N)=O)C(=O)N[C@@H](Cc1c[nH]cn1)C(=O)N1CCC[C@H]1C(=O)N[C@@H](Cc1c[nH]cn1)C(=O)N[C@H](C(=O)N[C@@H](Cc1ccc(O)cc1)C(=O)O)[C@@H](C)O", "target or system": "HLA class I histocompatibility antigen, A alpha chain allele A*02:01", "assay": "binding", "endpoint": "IC50", "result": "48.4 µM"}
{"SMILES": "C#Cc1ccc2c(c1)C(c1ccccn1)=NCc1c(-c3cnco3)ncn1-2.Cl", "assay": "shake flask", "test system": "50 mM phosphate buffer", "setting": "24 h, pH 8, 25 °C", "endpoint": "solubility", "result": "749 µg/mL"}
{"SMILES": "Nc1nc2c(ncn2[C@@H]2O[C@H](COP(=O)(O)OP(O)(O)=S)[C@@H](O)[C@H]2O)c(=O)[nH]1", "target or system": "OPRM1/GNAI1 (Homo sapiens, UniProt P35372+P63096)", "assay": "MOR-Gi coupling", "test system": "HEK293F", "setting": "ratio 1:5", "endpoint": "IC50", "result": "0.0339 µM and 0.043 µM and 0.04 µM"}
{"note": "Excerpt of the above:"}
{"SMILES": "Cc1ncc2n1-c1ccc(Cl)cc1C(c1ccccc1F)=NC2", "test system": "healthy volunteers", "setting": "oral, 5 mg, together with: momelotinib 200 mg", "endpoint": "feeling hot incidence", "result": "8.3%"}
{"SMILES": "NC(=O)c1ncn([C@@H]2O[C@H](CO)[C@@H](O)[C@H]2O)n1", "test system": "hamster cells", "endpoint": "CC50", "result": "340 µM"}
{"SMILES": "CCN(CC)C(=O)[C@@H]1C=C2c3cccc4[nH]cc(c34)C[C@H]2N(C)C1", "assay": "measured: intermittent shortness of breath", "test system": "healthy volunteers", "setting": "dose not given, 0 to 12 h", "how to read": "baseline: placebo, direction not given", "endpoint": "List of Complaints score", "result": 0}
